{"data": "Experimental data gathered from unrelated publications", "note": "± gives the spread as reported.", "sequence of UniProt P08183 (whole entry, looked up)": "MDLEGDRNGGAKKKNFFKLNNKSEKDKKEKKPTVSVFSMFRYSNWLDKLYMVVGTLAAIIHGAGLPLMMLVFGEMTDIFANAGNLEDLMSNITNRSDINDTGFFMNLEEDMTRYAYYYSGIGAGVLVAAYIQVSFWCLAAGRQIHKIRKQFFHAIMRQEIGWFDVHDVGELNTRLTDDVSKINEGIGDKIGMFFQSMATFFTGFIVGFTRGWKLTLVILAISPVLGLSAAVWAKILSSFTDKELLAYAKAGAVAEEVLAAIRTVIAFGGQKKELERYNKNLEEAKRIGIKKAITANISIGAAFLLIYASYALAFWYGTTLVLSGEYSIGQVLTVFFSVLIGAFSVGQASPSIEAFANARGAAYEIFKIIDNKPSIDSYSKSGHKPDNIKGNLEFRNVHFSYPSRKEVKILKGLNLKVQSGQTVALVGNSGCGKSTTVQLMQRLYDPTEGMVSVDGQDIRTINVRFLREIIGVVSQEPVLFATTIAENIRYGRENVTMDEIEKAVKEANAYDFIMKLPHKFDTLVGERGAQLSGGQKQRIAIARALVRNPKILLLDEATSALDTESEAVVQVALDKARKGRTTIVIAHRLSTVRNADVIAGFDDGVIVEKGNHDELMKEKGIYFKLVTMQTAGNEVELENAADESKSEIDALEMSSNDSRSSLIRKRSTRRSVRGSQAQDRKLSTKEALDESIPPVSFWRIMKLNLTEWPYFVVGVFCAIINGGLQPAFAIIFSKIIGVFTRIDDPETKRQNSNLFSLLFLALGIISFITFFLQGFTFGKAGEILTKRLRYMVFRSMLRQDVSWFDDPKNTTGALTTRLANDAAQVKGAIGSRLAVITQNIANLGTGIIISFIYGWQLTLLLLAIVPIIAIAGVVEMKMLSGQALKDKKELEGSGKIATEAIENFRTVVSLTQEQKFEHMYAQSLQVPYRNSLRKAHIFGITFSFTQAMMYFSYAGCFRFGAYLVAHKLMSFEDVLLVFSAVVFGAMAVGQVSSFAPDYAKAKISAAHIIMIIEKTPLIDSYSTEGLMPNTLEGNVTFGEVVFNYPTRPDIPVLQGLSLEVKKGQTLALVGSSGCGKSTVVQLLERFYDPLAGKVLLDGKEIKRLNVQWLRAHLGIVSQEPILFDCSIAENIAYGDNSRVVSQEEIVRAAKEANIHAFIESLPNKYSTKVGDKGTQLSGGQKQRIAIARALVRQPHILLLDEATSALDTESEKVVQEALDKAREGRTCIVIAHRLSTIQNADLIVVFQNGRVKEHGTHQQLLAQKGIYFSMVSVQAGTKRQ", "sequence of UniProt F4KU78 (whole entry, looked up)": "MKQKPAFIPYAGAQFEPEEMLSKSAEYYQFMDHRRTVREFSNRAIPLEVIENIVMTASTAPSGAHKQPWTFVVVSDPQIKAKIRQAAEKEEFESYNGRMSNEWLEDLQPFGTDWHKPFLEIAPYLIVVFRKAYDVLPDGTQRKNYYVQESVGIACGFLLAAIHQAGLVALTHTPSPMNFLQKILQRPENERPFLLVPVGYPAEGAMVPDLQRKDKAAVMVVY"}
{"SMILES": "COc1cc2c(Oc3ccc4[nH]c(C)cc4c3F)ccnc2cc1OCC1(N)CC1", "system": "paediatric refractory sarcoma patients", "setting": "8 mg", "measurement": "ALP elevation incidence", "value": "0%"}
{"SMILES": "CC(=O)Oc1ccc2c3c1O[C@H]1[C@@H](OC(C)=O)C=C[C@H]4[C@@H](C2)N(C)CC[C@@]341", "system": "rat, whole blood", "setting": "1000 nM, 4 h, room temperature, bench-top storage", "measurement": "stability bias", "value": "-14.6%"}
{"SMILES": "CC(C)(C)c1cc(C(C)(C)C)c(NC(=O)c2c[nH]c3ccccc3c2=O)cc1O", "tested on": "African green monkey cells", "setting": "5 days", "measurement": "CC50", "value": "4.62 µM"}
{"SMILES": "CO[C@H]1C[C@@H]2CC[C@@H](C)[C@@](O)(O2)C(=O)C(=O)N2CCCC[C@H]2C(=O)O[C@H]([C@H](C)C[C@@H]2CC[C@@H](OC(=O)NCCOCCOCCOCCOCCOCCOCCOCCOCCC(=O)N3CCc4cc(Cn5nc(-c6ccc7oc(N)nc7c6)c6c(N)ncnc65)ccc4C3)[C@H](OC)C2)C[C@@H](O)[C@H](C)/C=C(\\C)[C@@H](O)[C@@H](OC)C(=O)[C@H](C)C[C@H](C)/C=C/C=C/C=C/1C", "system": "patients with advanced solid tumours", "setting": "intravenous, dose not given, grade ≥3", "measurement": "Pneumonia AE leading to dose reduction", "value": "1.8%"}
{"SMILES": "COC(=O)[C@H]1[C@@H](OC(=O)c2ccccc2)C[C@@H]2CC[C@H]1N2", "system": "rat whole blood", "setting": "500 nM, 4 freeze-thaw cycles", "measurement": "stability bias", "value": "8.23%"}
{"SMILES": "CN(C)CCOC1=Cc2ccccc2Sc2ccc(Cl)cc21", "tested on": "African green monkey cells", "setting": "5 days", "measurement": "CC50", "value": "12.3 µM"}
{"SMILES": "COc1cccc(-c2n[nH]c(SCc3ccccn3)n2)c1OC", "tested on": "Escherichia coli", "assay": "Ames test, plate incorporation", "system": "WP2 uvrA", "setting": "2.0 mg/plate, without S9", "measurement": "revertant colonies per plate", "value": 30}
{"SMILES": "CC(CN1c2ccccc2Sc2ccccc21)N(C)C (stereo not drawn)", "tested on": "African green monkey cells", "setting": "5 days", "measurement": "CC50", "value": "33.1 µM"}
{"SMILES": "[Cl-].[Cl-].[Pt+2].[Ru+2].c1ccc(-c2nccnc2-c2ccccn2)nc1.c1cnc2c(c1)ccc1cccnc12.c1cnc2c(c1)ccc1cccnc12", "tested on": "Danio rerio", "system": "embryos", "setting": "30 µM, 48 h", "measurement": "hatching rate", "value": "23 ± 2.8%"}
{"SMILES": "CC(C)CC(=O)OC[C@H]1O[C@@](C#N)(c2ccc3c(N)ncnn23)[C@H](O)[C@@H]1O", "tested on": "ABCB1 (Homo sapiens, UniProt P08183)", "assay": "basolateral to apical transport", "system": "Caco-2", "setting": "90 µM, 2 h, together with: zosuquidar 25 µM", "measurement": "recovery", "value": "77.8%"}
{"SMILES": "CN1CC[C@]23c4c5ccc(O)c4O[C@H]2[C@@H](O[C@@H]2O[C@H](C(=O)O)[C@@H](O)[C@H](O)[C@H]2O)C=C[C@H]3[C@H]1C5", "system": "rat, whole blood", "setting": "500 nM, 4 months, -80 °C, long-term storage", "measurement": "stability bias", "value": "-1.26%"}
{"SMILES": "[Cl-].[Cl-].[Pt+2].[Ru+2].c1ccc(-c2nc3ccccc3nc2-c2ccccn2)nc1.c1cnc2c(c1)ccc1cccnc12.c1cnc2c(c1)ccc1cccnc12", "tested on": "Danio rerio", "system": "embryos", "setting": "15 µM, 72 h", "measurement": "survival rate", "value": "86.7 ± 2.4%"}
{"SMILES": "COc1ncnn2ccc(-c3cnc4nc(C)n(Cc5nnc([C@@H](C)F)o5)c4c3)c12", "system": "human", "setting": "oral, dose not given, grade 4", "measurement": "patients with nausea", "value": "0%"}
{"SMILES": "CCCCN(CCCC)CCCOc1ccc(C(=O)c2c(CC)cc3ccccn23)cc1", "tested on": "African green monkey cells", "setting": "5 days", "measurement": "CC50", "value": "6.61 µM"}
{"SMILES": "C[C@]1(CO)Cc2ncn(-c3ccc(C#N)c(Cl)c3)c2C(=O)O1", "system": "human", "setting": "80 mg multiple doses, fasted", "measurement": "subjects with drug-related dizziness", "value": "11.1%"}
{"SMILES": "Cc1ncc2n1-c1ccc(Cl)cc1C(c1ccccc1F)=NC2", "system": "healthy human volunteers, plasma", "setting": "oral, dose not given, CYP3A probe substrate, together with: multiple-dose momelotinib", "how to read": "relative to: compound alone", "measurement": "decrease in Cmax", "value": "8%"}
{"SMILES": "COC(=O)[C@@H]1[C@H]2CC[C@@H](C[C@@H]1O)N2C", "system": "rat, whole blood", "setting": "1000 nM, 4 months, -80 °C, long-term storage", "measurement": "stability bias", "value": "0.02%"}
{"SMILES": "Cc1cc(C(=O)NC(C)(C)COc2cccc3c2C(N)=NS(=O)(=O)N3)cc(C)n1", "tested on": "Salmonella typhimurium", "assay": "Ames test, initial", "system": "TA100", "setting": "1.50 µg/plate", "how to read": "relative to: solvent control", "measurement": "revertant ratio", "value": 1}
{"SMILES": "O=C1c2c(O)c(=O)ccn2N([C@@H]2c3ccccc3SCc3c2ccc(F)c3F)[C@@H]2COCCN12", "system": "BALB/c mice, plasma", "setting": "oral, 50 mg/kg baloxavir marboxil, 8 h", "measurement": "plasma concentration", "value": "54.7 ng/mL"}
{"SMILES": "CNCCC=C1c2ccccc2CCc2ccccc21", "tested on": "African green monkey cells", "setting": "5 days", "measurement": "CC50", "value": "24 µM"}
{"SMILES": "O=c1ccc2ccccc2o1", "tested on": "NHEK", "assay": "ER stress, item: ATF4", "setting": "concentration not given, 24 h", "measurement": "chance response", "value": "0.02%"}
{"SMILES": "CC(=O)O[C@H]1C=C[C@H]2[C@H]3Cc4ccc(O)c5c4[C@@]2(CCN3C)[C@H]1O5", "system": "rat, whole blood", "setting": "1000 nM, 4 h, room temperature, bench-top storage", "measurement": "stability bias", "value": "13%"}
{"SMILES": "COc1ccc(-n2nc(C(C)=O)s/c2=N\\N=C(/C)c2ccc(NC(C)=O)cc2)cc1", "tested on": "WI-38", "setting": "0.312 µM, 24 (unit not given)", "measurement": "viability", "value": "3.68%"}
{"SMILES": "COC(=O)[C@H]1[C@@H](OC(=O)c2ccccc2)C[C@@H]2CC[C@H]1N2C", "system": "rat, whole blood", "setting": "1000 nM, 4 h, room temperature, bench-top storage", "measurement": "stability bias", "value": "0.77%"}
{"SMILES": "CCC1(c2ccccc2)C(=O)NC(=O)NC1=O", "tested on": "CYP2B6", "assay": "induction, item: CYP2B6 mRNA", "system": "primary human hepatocytes", "setting": "NG, 3 days, 0.1% DMSO", "how to read": "relative to: vehicle", "measurement": "mRNA level", "value": "13.8 to 105 fold"}
{"SMILES": "Cc1cc2nc3c(=O)[nH]c(=O)nc-3n(C[C@H](O)[C@H](O)[C@H](O)COP(=O)(O)O)c2cc1C", "tested on": "Iodotyrosine deiodinase (Haliscomenobacter hydrossis, UniProt F4KU78)", "assay": "bound cofactor redox, redox titration", "setting": "pH 7.4, 25 °C, anaerobic, no substrate", "measurement": "midpoint potential", "value": "-210 ± 6 mV"}
{"SMILES": "CN1[C@H]2CC[C@@H]1[C@@H](C(=O)O)[C@@H](OC(=O)c1ccccc1)C2", "system": "rat whole blood", "setting": "500 nM, 4 h, room temperature", "measurement": "stability bias", "value": "7.45%"}
{"SMILES": "Cc1cc(C)c2nc(-c3cnc(NCCCC4CCN(C)CC4)nc3C)[nH]c2c1", "tested on": "African green monkey cells", "setting": "5 days", "measurement": "CC50", "value": "22.4 µM"}
{"SMILES": "CN1CC[C@@H](c2c(O)cc(O)c3c(=O)cc(-c4ccc(C(F)(F)F)cc4Cl)oc23)[C@@H]1CO", "assay": "item: Hypoalbuminemia", "system": "relapsed B-cell malignancies", "setting": "oral, 150 mg, grade 3-4, intermittent dosing", "measurement": "patients with adverse event", "value": "0%"}
{"SMILES": "CCOC(=O)[C@H]1O[C@@H]1C(=O)N[C@@H](CC(C)C)C(=O)NCCC(C)C", "tested on": "African green monkey cells", "setting": "5 days", "measurement": "CC50", "value": "> 100 µM"}
{"SMILES": "CN1CC[C@]23c4c5ccc(O[C@@H]6O[C@H](C(=O)O)[C@@H](O)[C@H](O)[C@H]6O)c4O[C@H]2[C@@H](O)C=C[C@H]3[C@H]1C5", "system": "rat, whole blood", "setting": "10 nM, 4 freeze-thaw cycles", "measurement": "stability bias", "value": "-10.5%"}
{"SMILES": "CNCC[C@H](Oc1cccc2ccccc12)c1cccs1", "tested on": "African green monkey cells", "setting": "5 days", "measurement": "CC50", "value": "17.8 µM"}
{"SMILES": "CO[C@H]1/C=C/O[C@@]2(C)Oc3c(C)c(O)c4c(O)c(c(/C=N/N5CCN(C6CCCC6)CC5)c(O)c4c3C2=O)NC(=O)/C(C)=C\\C=C\\[C@H](C)[C@H](O)[C@@H](C)[C@@H](O)[C@@H](C)[C@H](OC(C)=O)[C@@H]1C", "tested on": "African green monkey cells", "measurement": "CC50", "value": "142 µM"}
